Results gathered from unrelated publications.
A part holds a random share of what one study measured. Changes are numbered by the printed parent chain.

Series 1 — technique: DHFR PCA, deep sequencing; sample: yeast; together with: (+)-ABA 710 µM; relative to: wild-type fitted maximum; reading: higher = stronger binding
Target: ABI1, truncated, D143A, DHFR fusion (Arabidopsis thaliana)
Setting: methotrexate growth selection, single substitutions
Starting sequence: PYL1, truncated, DHFR fusion (Arabidopsis thaliana); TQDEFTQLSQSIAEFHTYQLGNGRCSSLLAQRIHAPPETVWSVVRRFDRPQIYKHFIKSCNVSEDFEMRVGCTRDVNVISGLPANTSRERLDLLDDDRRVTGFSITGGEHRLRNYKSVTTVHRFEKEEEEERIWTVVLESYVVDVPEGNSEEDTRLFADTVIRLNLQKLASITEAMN
Under “relative binding score”, `I79F` is recorded as 104%.
For `V78N`, “relative binding score” read 63.9%.
Under “relative binding score”, `L138Y` is recorded as 97.4%.
`Y53K` — result for “relative binding score”: 21.2%.
`L29M`: “relative binding score” 93.5%.
`W41S`: “relative binding score” -15.9%.
`G108R`: “relative binding score” 45.2%.
`V143C`: “relative binding score” 102%.
`T1E`: “relative binding score” 102%.
`L93E` — result for “relative binding score”: 101%.
Under “relative binding score”, `L8K` is recorded as 77.2%.
For `L164A`, “relative binding score” read 101%.

Series 2 — technique: protein binding microarray; molecule type: double-stranded DNA, one strand shown; sample: in vitro; tested at: not given; relative to: not given; reading: higher = stronger binding
Target: Histone acetyltransferase KAT6A, both winged helices, GST fusion (KAT6A, Homo sapiens, UniProt Q92794, residues 1-181)
Setting: 8-mer, flanks averaged, mean of 2 arrays, mostly near background
Target sequence (chain): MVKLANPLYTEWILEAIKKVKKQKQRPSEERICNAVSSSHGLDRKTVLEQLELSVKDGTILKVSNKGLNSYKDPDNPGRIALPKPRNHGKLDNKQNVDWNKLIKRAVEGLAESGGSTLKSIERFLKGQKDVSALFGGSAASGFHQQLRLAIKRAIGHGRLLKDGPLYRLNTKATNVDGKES
`CGAAGTAC` gave an E-score of 0.0955.
The E-score of `AAATAGGC` is reported as 0.0571.
`CTGAGACA` has an E-score of -0.237.
`CTTACCTA` gave an E-score of -0.238.
For `ATGAACAC`, the E-score was -0.0125.
For `TACACGAA`, the E-score was 0.0769.
`AGAGAGAG` has an E-score of -0.213.
For `CTTATAAG`, the E-score was -0.0741.
`GCCCAGTA` gave an E-score of -0.195.
`TGATGTAA` gave an E-score of -0.048.
`CCACATAC` has an E-score of -0.152.
With `AAGTTCAG` the E-score was -0.195.
The E-score of `CATTGCAG` is reported as -0.125.
`CCCGCACC` has an E-score of 0.161.
For `ACTCTCTG`, the E-score was -0.0899.
`CATTCAAA` has an E-score of -0.0622.
With `ATGCGTGC` the E-score was 0.103.
For `GCCGTCGA`, the E-score was 0.238.
`GCTCGTAA` has an E-score of -0.0466.
The E-score of `ATAAGTCA` is reported as -0.114.
With `CCGCGCCC` the E-score was 0.329.
`ACGCACGG` has an E-score of 0.294.
`AGTGCAGC` gave an E-score of 0.0524.
For `ACAGAAAC`, the E-score was -0.0996.
`GCATATTA` gave an E-score of 0.078.

Series 3 — technique: RNA Bind-n-Seq; molecule type: RNA; sample: in vitro; tested at: 365 nM; relative to: no-protein control; reading: higher = stronger binding
Target: RNA binding protein fox-1 homolog 2, RRM domain, GST-SBP tag (RBFOX2, Homo sapiens, UniProt O43251-10, residues 100-194)
Setting: natural RNA segment, single round, ends assumed
Constant ends, left off below: GGGAGUUCUACAGUCCGACGAUC … UGGAAUUCUCGGGUGCCAA
Construct (chain): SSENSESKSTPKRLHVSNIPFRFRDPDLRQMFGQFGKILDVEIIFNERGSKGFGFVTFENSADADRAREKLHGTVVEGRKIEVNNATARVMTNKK
Under “RBNS enrichment (R)”, `GGAUCCUGUUUCCCACCUCCUUCUCCUCCCCUGUACUCCCCAGUGCCUUCCUUGUUCUGGUGGAGCUGGGGUUUCUCUCCUCCCCAGUCCCACAACACUGCCAAAAAUCU` is recorded as 0.927.
`UAACUAGGACCAUUUUCCUGAAUUGGACUAUAUAACUCAGCAGUAUGUUUCAGUCUUUCGGAGUAAAUCACAUUUGUGAUAAUCAUACUAGAUCUCUGUCUUCAGUCUCA` — result for “RBNS enrichment (R)”: 0.435.
`CCCCACUUUAGGGUUCUCAAAUACUUUGGACAUCUCUUUCCUUAGAGCCAGGUAGAUGUCUUACAGGUGAACUCGAUGAUGUGGAAAAGAACAAAAAAAGGGAGGUGAGG` — result for “RBNS enrichment (R)”: 0.503.
Under “RBNS enrichment (R)”, `AAUGACUUACUGUGGAUAACAAAGAUAUCUUUUCUUUAGAGAACUGAAAAGAGAGGAAAGAAUAUAACGUGAAAUGCUAGAUUUGACCUCCUCCCUGUUAUUUCCAAGUA` is recorded as 0.371.
For `CAGCUCUUAGGAAUAGAAAGGAGGACUGCUGACUGUCUGGCGCUGUAUAAAAAUGUGUAUACCAAUUUGGGAAUAGGGGAACCCAGUCAUGGAUGGAUAAUAAGCCAAGU`, “RBNS enrichment (R)” read 0.303.
`CAUGCACUGGCUGAAGUGGGCAGACUGGAGGCGGCCUCUGCAAGAAAUGGAGUCAGGCGAAGUCCACCUUGUACGCUGCUGUGCGGCUUAGGAAUAAAGUGAAUCUCUUC`: “RBNS enrichment (R)” 0.381.
For `GCCAAGGUGUUUCCAUUUCUCAAUCAGUGCAGUGAUACAUGUACUCCAGAGGGACAGGGUGGACCCCCUGAGUCAACUGGAGCAAGAAGGAAGGAGGCAGACUGAUGGCG`, “RBNS enrichment (R)” read 0.451.
`UCCUUUCACAGCCGGUCUCUCUGCCAGGAAAUGGGGGAAGGAACUAGAACCACCUGCACCUUGAGAUGUUUCUGUAAAUGGGUACUUGUGAUCACACUACGGGAAUCUCU`: “RBNS enrichment (R)” 0.27.
For `UUGGUGCCUCUUUAUUUUAAAAAAUUUGAAGAAAAGAGCCACCUCAUAUUCAUAGGGUGUGUAUUUUUUGAGUGUGAGCAUUUAAUUGAAAAUAAGAAAGCUAUGAAGUA`, “RBNS enrichment (R)” read 0.752.
`CAAUUUUGUAGGAUUACAAAAAAGCCAUUAAUAUGCCAGUCAAGACUACAGUUAAAACUACUCUUGCACUGCAACAGUGCAUAUGACCUUUAUGUGAUUGUACAGUAUUA`: “RBNS enrichment (R)” 0.286.
Under “RBNS enrichment (R)”, `UGAGAGGCCGGGCAAGCCAGAUUAGGACUUUGUCCUCAUACUCUUACAGUGCUGCAAAGUUGUGUGCAUCGCUAAAGAGAGCCCCAACCUAUACAGAGAGCAAACAAUGA` is recorded as 0.472.
Under “RBNS enrichment (R)”, `UGCACUAGGGCUUGUCCGUCCAUAAGGAAUUCCCCUCUGCUUUGCUCAAAGGACCAAAUUUCUUUGGCCAAAGAAGUUGCUUCUAUGUUAGUCCCAUACCCUGAAGUAAU` is recorded as 0.498.

Series 4 — technique: protein-binding microarray; molecule type: double-stranded DNA, one strand shown; sample: in vitro; tested at: 0.8 µM; setting: whole 60-bp probe, no competitor; reading: higher = stronger binding; constant ends, left off below: … GTCTTGATTCGCTTGACGCTGCTG
Target: Centromere-binding protein 1, full length, N-terminal tag (CBF1, Saccharomyces cerevisiae, UniProt P17106, residues 1-351)
UniProt P17106, sequence (whole entry, looked up): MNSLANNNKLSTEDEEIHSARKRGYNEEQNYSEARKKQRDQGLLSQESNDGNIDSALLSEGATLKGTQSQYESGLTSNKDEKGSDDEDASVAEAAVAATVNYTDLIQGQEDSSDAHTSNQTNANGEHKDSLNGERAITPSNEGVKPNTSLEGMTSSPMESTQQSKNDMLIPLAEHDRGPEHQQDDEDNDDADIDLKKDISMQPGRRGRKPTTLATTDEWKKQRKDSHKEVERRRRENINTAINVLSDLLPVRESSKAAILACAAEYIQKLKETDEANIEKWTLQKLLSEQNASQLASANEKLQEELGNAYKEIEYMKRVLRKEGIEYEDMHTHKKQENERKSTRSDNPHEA
`GAATATACAAATATACACGTTCGGTCAATTGCATAG` gave a fluorescence intensity of 559 a.u.
The fluorescence intensity of `CTATGACTCTTCTACAACGTGAATGCCTTTGATTTC` is reported as 646 a.u.
For `CTATCTAAAATTGGTCACGATACTAATCTTGAGTTC`, the fluorescence intensity was 2410 a.u.
`TGTACGAAGCTATGTGACGTTTGTATAGTAGTTAGG` has a fluorescence intensity of 533 a.u.
`CCTAACTACTATATCAACATGCAATAGCTTCGTACA` gave a fluorescence intensity of 534 a.u.
`GAATTCACTTTGAGTCACCACGTAGCAATTCTTTAG` gave a fluorescence intensity of 556 a.u.
For `CTACCAACAAAGCATCACGCTGTCGTATCTCAATTC`, the fluorescence intensity was 636 a.u.
The fluorescence intensity of `CTATCATGATTACCCAACGTGCCGTTACAAATGTTC` is reported as 610 a.u.
With `CTATTACAAGTGTGTCACCATTTCCGGCCCACCTTC` the fluorescence intensity was 523 a.u.
The fluorescence intensity of `GAAAAAGGTAGTATTCACGTGTGGCTTCAAGAATAG` is reported as 1660 a.u.
`TGTACGAAGCTATCACCCGTGTATATAGTAGTTAGG` has a fluorescence intensity of 545 a.u.
For `CCTAACTACTATAATCATGCCGGATAGCTTCGTACA`, the fluorescence intensity was 548 a.u.
With `CTAATTGAGAACACAAAGATCACGTTGAACGAATTC` the fluorescence intensity was 1730 a.u.
`CTATCGCTAGGCGGTGATGCATTTCCGCACAGGTTC` gave a fluorescence intensity of 477 a.u.
The fluorescence intensity of `CTATGCCCTTATTCGCACGTGCCATAACACCTGTTC` is reported as 10300 a.u.
The fluorescence intensity of `GAATTACATAGGCATCACGAAAAAAAGTCGCATTAG` is reported as 585 a.u.

Series 5 — target: CCNF, cyclin fold, Cln2 fusion (human); technique: yeast growth competition, sequencing; sample: yeast; setting: strong parent motif; relative to: not given; reading: higher = stronger binding
Starting sequence: E2F1 docking peptide (human); PPVKRRLDFETDH
`PPSKRRLDFETDH [V3S]`: “normalised enrichment score” 7.27.
Under “normalised enrichment score”, `PPVKRRLDFETNH [D12N]` is recorded as 7.67.
Under “normalised enrichment score”, `PPVKRILDFETDH [R6I]` is recorded as 6.07.
`PPVKRLLDFETDH [R6L]` — result for “normalised enrichment score”: 6.06.
`PPQKRRLDFETDH [V3Q]`: “normalised enrichment score” 6.37.
Under “normalised enrichment score”, `PPVKRRLDFEHDH [T11H]` is recorded as 7.62.
Under “normalised enrichment score”, `PPVKRRLDFEDDH [T11D]` is recorded as 6.71.
For `PPVKRRLDFESDH [T11S]`, “normalised enrichment score” read 7.47.
Under “normalised enrichment score”, `PPEKRRLDFETDH [V3E]` is recorded as 6.72.
`PPVKRRLDFETLH [D12L]` — result for “normalised enrichment score”: 7.77.
`PPVKRRLDFGTDH [E10G]` — result for “normalised enrichment score”: 7.86.
Under “normalised enrichment score”, `PPVKRREDFETDH [L7E]` is recorded as 0.272.
Under “normalised enrichment score”, `PPVKRRLDWETDH [F9W]` is recorded as 5.66.
Under “normalised enrichment score”, `PPRKRRLDFETDH [V3R]` is recorded as 3.73.
For `PPVKRRLWFETDH [D8W]`, “normalised enrichment score” read 9.21.
Under “normalised enrichment score”, `PPIKRRLDFETDH [V3I]` is recorded as 7.16.
`PPVKRRLDFKTDH [E10K]` — result for “normalised enrichment score”: 7.89.
`PPVKWRLDFETDH [R5W]`: “normalised enrichment score” -0.157.
For `PPVKRRLDFEWDH [T11W]`, “normalised enrichment score” read 7.95.
For `PPVKGRLDFETDH [R5G]`, “normalised enrichment score” read 0.596.
For `PPVKRRLDFETSH [D12S]`, “normalised enrichment score” read 8.

Repeated from above (series 3):
Under “RBNS enrichment (R)”, `GGAUCCUGUUUCCCACCUCCUUCUCCUCCCCUGUACUCCCCAGUGCCUUCCUUGUUCUGGUGGAGCUGGGGUUUCUCUCCUCCCCAGUCCCACAACACUGCCAAAAAUCU` is recorded as 0.927.
`CAUGCACUGGCUGAAGUGGGCAGACUGGAGGCGGCCUCUGCAAGAAAUGGAGUCAGGCGAAGUCCACCUUGUACGCUGCUGUGCGGCUUAGGAAUAAAGUGAAUCUCUUC`: “RBNS enrichment (R)” 0.381.
For `GCCAAGGUGUUUCCAUUUCUCAAUCAGUGCAGUGAUACAUGUACUCCAGAGGGACAGGGUGGACCCCCUGAGUCAACUGGAGCAAGAAGGAAGGAGGCAGACUGAUGGCG`, “RBNS enrichment (R)” read 0.451.
`CCCCACUUUAGGGUUCUCAAAUACUUUGGACAUCUCUUUCCUUAGAGCCAGGUAGAUGUCUUACAGGUGAACUCGAUGAUGUGGAAAAGAACAAAAAAAGGGAGGUGAGG` — result for “RBNS enrichment (R)”: 0.503.
For `UUGGUGCCUCUUUAUUUUAAAAAAUUUGAAGAAAAGAGCCACCUCAUAUUCAUAGGGUGUGUAUUUUUUGAGUGUGAGCAUUUAAUUGAAAAUAAGAAAGCUAUGAAGUA`, “RBNS enrichment (R)” read 0.752.
Under “RBNS enrichment (R)”, `AAUGACUUACUGUGGAUAACAAAGAUAUCUUUUCUUUAGAGAACUGAAAAGAGAGGAAAGAAUAUAACGUGAAAUGCUAGAUUUGACCUCCUCCCUGUUAUUUCCAAGUA` is recorded as 0.371.
`CAAUUUUGUAGGAUUACAAAAAAGCCAUUAAUAUGCCAGUCAAGACUACAGUUAAAACUACUCUUGCACUGCAACAGUGCAUAUGACCUUUAUGUGAUUGUACAGUAUUA`: “RBNS enrichment (R)” 0.286.
Under “RBNS enrichment (R)”, `UGAGAGGCCGGGCAAGCCAGAUUAGGACUUUGUCCUCAUACUCUUACAGUGCUGCAAAGUUGUGUGCAUCGCUAAAGAGAGCCCCAACCUAUACAGAGAGCAAACAAUGA` is recorded as 0.472.
